Results gathered from unrelated publications.
Lines come from different studies, so protocols differ. “And” joins repeats or separate records; there may be more than shown. ± marks the error that the study gave.

Compound	assay	system	conditions	how to read	measurement	value
O=C(O[C@@H]1Cc2c(O)cc(O)cc2O[C@@H]1c1cc(O)c(O)c(O)c1)c1cc(O)c(O)c(O)c1	sulfation, substrate	human liver cytosol	10 min, pH 7.4	–	Km	0.24 ± 0.08 µM
CCc1c2c(nc3ccc(O)cc13)-c1cc3c(c(=O)n1C2)COC(=O)[C@]3(O)CC	–	human patients, plasma	intravenous, 3 mg/m^2 of parent drug	–	Cmax	6 ng/mL
Cn1c(=O)oc2ccc(-c3ccc(CC(C#N)NC(=O)C4CNCCCO4)c(F)c3)cc21 (stereo not drawn)	refers to: urinary occult blood positive	human	15 mg single dose, fasted	–	subjects with TEAE	0%
C=CC(=O)Nc1cc(Nc2nccc(-c3cn(C)c4ccccc34)n2)c(O)nc1N(C)CCN(C)C	LC-MS	human liver microsomes	3 µM, 60 min, with: sulfaphenazole 6 µM	baseline: no inhibitor	remaining parent compound	92%
CCCC[C@H](NC(=O)CNC(=O)CNC(=O)CN1CCN(CC(=O)O)CCN(CC(=O)O)CCN(CC(=O)O)CC1)C(=O)N[C@H]1CC(=O)NCCCC[C@@H](C(N)=O)NC(=O)[C@H](Cc2c[nH]c3ccccc23)NC(=O)[C@H](CCCNC(=N)N)NC(=O)[C@@H](Cc2ccccc2)NC(=O)[C@H](Cc2c[nH]cn2)NC1=O [gallium-67 labelled]	–	C57 mice, B16/F1 melanoma	2 h	–	tumour to skin uptake ratio	30.4
CC1=C(/C=C/C(=O)N2CCN(C(N)=O)CC2)C(C)(C)CCC1	–	male mice, plasma	oral, 120 mg/kg	–	Cmax	94.2 nmol/g
NC[C@@H](C(=O)Nc1ccc(-c2cn[nH]c2)cc1)c1ccccc1	OECD 405 eye irritation	New Zealand White rabbit, eye	topical, 0.1%, 24 h (day 2)	direction not given	total eye irritation score	0
C[C@H](NC(=O)[C@H](C)NC(=O)[C@H](C)NC(=O)[C@H](CCCNC(=N)N)NC(=O)[C@H](CCCNC(=N)N)NC(=O)[C@H](C)NC(=O)[C@H](C)NC(=O)[C@H](C)NC(=O)[C@H](C)NC(=O)[C@H](CCCNC(=N)N)NC(=O)[C@H](CCCNC(=N)N)NC(=O)[C@H](C)NC(=O)[C@H](C)NC(=O)[C@H](C)NC(=O)[C@H](C)NC(=O)[C@H](CCCNC(=N)N)NC(=O)[C@H](CCCNC(=N)N)NC(=O)c1ccc2c(c1)C(=O)OC21c2ccc(O)cc2Oc2cc(O)ccc21)C(=O)N[C@@H](C)C(=O)N[C@@H](CCCNC(=N)N)C(=O)N[C@@H](CCCNC(=N)N)C(=O)O	–	bovine cartilage explants	7 days, with: 10 x PBS	–	desorbed fraction	50 to 80%
O=C(CCc1ccc(CNC(C(=O)OC2CCCC2)C2CCCCC2)cn1)NO (stereo not drawn)	–	human	oral, 40 mg, single dose, geometric mean	–	Vz/F	158 L
C[C@H](NC(=O)[C@H](CCCNC(=N)N)N(C)C(=O)[C@@H]1CCCN1C(=O)[C@H](CCCNC(=N)N)NC(=O)CNC(=O)c1ccc2c(c1)C1(OC2=O)c2ccc(O)cc2Oc2cc(O)ccc21)C(=O)N[C@@H](Cc1ccccc1)C(=O)N[C@H](C(=O)N[C@@H](Cc1ccccc1)C(=O)N(C)CC(=O)N[C@@H](CCC(=O)O)C(=O)NCC(N)=O)[C@@H](C)O	CE-LIF	HeLa cytosolic lysate	60 min, sarcosine-glutamate bond hydrolysis	baseline: total peptide	9-mer fragment	40%
CC(=O)N[C@H](CC(=O)O)C(=O)N[C@H](Cc1c[nH]c2ccccc12)C(=O)N[C@H](Cc1ccccc1)C(=O)N[C@H](CCCCN)C(=O)N[C@H](C)C(=O)N[C@H](Cc1ccccc1)C(=O)N[C@H](Cc1ccc(O)cc1)C(=O)N[C@H](CC(=O)O)C(=O)N[C@H](CCCCN)C(=O)N[C@@H](C(=O)N[C@H](C)C(=O)N[C@H](CCC(=O)O)C(=O)N[C@H](CCCCN)C(=O)N[C@H](Cc1ccccc1)C(=O)N[C@H](CCCCN)C(=O)N[C@H](CCC(=O)O)C(=O)N[C@H](C)C(=O)N[C@H](Cc1ccccc1)C(N)=O)C(C)C	–	statin-treated high-risk CHD men, plasma	oral, 100 mg daily, day 1, 0 to 2 h, mean, undetectable set to 0	–	AUC(0-t)	2.82 ng·h/mL
Cc1ccc(-c2ccc(-c3cc4sccc4o3)cn2)nc1	TCSPC	DMSO	–	–	fluorescence lifetime	1.51 ns
CC[C@H](C)[C@@H]1NC(=O)[C@H](Cc2ccccc2)NC(=O)[C@@H](NC(=O)[C@H](CCCNC(=N)N)NC(=O)[C@H](Cc2ccccc2)NC(=O)[C@H](Cc2ccccc2)NC(=O)[C@H](CCCCN)NC(=O)[C@H](CO)NC(=O)[C@H](CC(C)C)NC(=O)[C@H](CCCNC(=N)N)NC(=O)[C@H](CCSC)NC(=O)[C@H](C)N)CCNC(=O)NCCCC[C@@H](C(=O)N[C@@H](CCCNC(=N)N)C(=O)N[C@@H](CCCCN)C(=O)N[C@@H](CCCCN)C(=O)O)NC(=O)[C@H](CC(C)C)NC1=O	circular dichroism	20% TFE in PBS	200 µM, pH 7.4, 25 °C	–	helicity	12.6%
CC(C)(Sc1cc[n+]([O-])cc1-c1ccc(C#N)c2ccccc12)C(=O)OC1OC(C(=O)O)C(O)C(O)C1O (stereo not drawn)	–	adult men, plasma	oral, 15 mg verinurad, mild renal impairment	baseline: impaired over normal renal function	Cmax ratio	158%
C=CCn1c2ccc([N+](=O)[O-])cc2c(=O)n1Cc1ccccc1	resazurin	peritoneal macrophages, BALB/c mice	48 h, 10% FBS	–	CC50	4.2 ± 0.1 µM
NC12CNCCNCC(NCc3ccc(CNC(=O)CCCC(=O)NCc4ccc(-c5nncnn5)cc4)cc3)(CNCCNC1)CNCCNC2.[64Cu+2]	OLINDA dosimetry	thymus	24 h pretargeting interval, with: huA33-TCO pretargeting	–	mean absorbed dose	0.0351 rad/mCi
N=C(N)NCCC[C@@H]1NC(=O)[C@H](Cc2c[nH]c3ccccc23)NC(=O)[C@@H](CC2CCCCC2)NC(=O)[C@@H]2CCCN2C(=O)[C@@H](NC(=O)CCc2ccccc2)CCCNC1=O	–	C57BL/6J mice, spinal cord	oral, 1 mg/kg, two-compartment model	–	apparent total clearance (CL/F)	0.81 ng/(min·ng/g)
CCCC[C@@H]1NC(=O)[C@@H](NC(=O)[C@H](CCC(=O)O)NC(=O)CNC(=O)CN2CCN(CC(=O)O)CCN(CC(=O)O)CCN(CC(=O)O)CC2)CCCCNC(=O)C[C@@H](C(N)=O)NC(=O)[C@H](C(C)C)NC(=O)[C@@H]2CCCN2C(=O)[C@H](CCCNC(=N)N)NC(=O)CNC(=O)[C@H](Cc2c[nH]c3ccccc23)NC(=O)[C@H](CCCNC(=N)N)NC(=O)[C@@H](Cc2ccccc2)NC(=O)[C@H](Cc2c[nH]cn2)NC(=O)[C@H](CCC(=O)O)NC1=O [gallium-67 labelled]	–	C57 mice with B16/F1 melanoma	intravenous, 0.037 MBq/mouse, 0.5 h	baseline: tumour over blood	tumour to blood ratio	7.04
O=C(O)C1CN(Cc2ccc(-c3noc(-c4ccc(OCC[18F])c(C(F)(F)F)c4)n3)cc2)C1	–	male Sprague-Dawley rat, kidney	intravenous, 5 min	–	tissue uptake	2.03 ± 0.25 %ID/g
O=C([O-])CN1CCN(CC(=O)[O-])CCN(CC(=O)NCC2CCC(C(=O)NC(Cc3ccc4ccccc4c3)C(=O)NCCCCC(NC(=O)NC(CCC(=O)O)C(=O)O)C(=O)O)CC2)CCN(CC(=O)[O-])CC1.[44Sc+3] (stereo not drawn)	PET/CT dosimetry, OLINDA/EXM	human, salivary glands	–	–	organ absorbed dose	0.097 mSv/MBq and 0.052 mSv/MBq and 0.035 mSv/MBq
CC(C)c1cnc(-c2cc(Cl)ccc2F)cc1Nc1ccncc1C(=O)NC(CO)CO	–	human, advanced solid tumour	oral, dose not given, phase I monotherapy	–	AST increase incidence, all grades	23.8%
COc1cc(NC(C)=O)c2c(c1O)-c1c(OC)c(OC)cc3c1C(C2)N(C)CC3 (stereo not drawn)	HPLC	male Wistar rat, plasma	oral, 200 mg/kg	–	MRT(0-inf)	4.04 h
CCCCCCCCCCCCCCCC(=O)N[C@@H](CCCCN)C(=O)N[C@@H](CCCCN)C(=O)N[C@@H](CO)C(=O)N[C@@H](CCCNC(=N)N)C(=O)N[C@@H](C)C(=O)N[C@@H](CC(C)C)C(=O)N[C@@H](Cc1ccccc1)C(N)=O	–	cynomolgus monkey, female	10 mg/kg, day 5	–	prothrombin time	11.4 ± 0.6 s
O=C([O-])CN1CCN(CC(=O)[O-])CCN(CC(=O)NC[C@H]2CC[C@H](C(=O)N[C@H](Cc3cnc4ccccc4c3)C(=O)NCCCC[C@H](NC(=O)N[C@@H](CCC(=O)O)C(=O)O)C(=O)O)CC2)CCN(CC(=O)[O-])CC1.[64Cu+2]	PET/CT dosimetry OLINDA/EXM	healthy volunteers, lungs	up to 24 h post-injection	–	absorbed dose	0.011 mGy/MBq
CN1CCC[C@]1(C)/C=C/S(=O)(=O)NC(=O)Nc1c2c(cc3c1CCC3)CCC2	–	human, plasma	oral, 50 mg twice daily, 14 days, multiple ascending dose	baseline: day 14 over day 1	accumulation ratio AUC(0-tau)	1.6
NC(=O)/C=C/c1cccc(S(=O)(=O)Nc2ccccc2)c1	–	patients with normal liver function, plasma	intravenous, 400 mg/m^2 belinostat, single 30 min infusion, cycle 1 day -7, mean	–	AUC(0-inf)	10800 ng·h/mL
CN(Cc1ccc(F)cc1)Cc1cc(=O)oc2cc(O)ccc12	–	human serum	0.5 mM, 15 min	–	remaining intact compound	> 99%

Some of these lines once more:
Compound	assay	system	conditions	how to read	measurement	value
NC[C@@H](C(=O)Nc1ccc(-c2cn[nH]c2)cc1)c1ccccc1	OECD 405 eye irritation	New Zealand White rabbit, eye	topical, 0.1%, 24 h (day 2)	direction not given	total eye irritation score	0
O=C(CCc1ccc(CNC(C(=O)OC2CCCC2)C2CCCCC2)cn1)NO (stereo not drawn)	–	human	oral, 40 mg, single dose, geometric mean	–	Vz/F	158 L
N=C(N)NCCC[C@@H]1NC(=O)[C@H](Cc2c[nH]c3ccccc23)NC(=O)[C@@H](CC2CCCCC2)NC(=O)[C@@H]2CCCN2C(=O)[C@@H](NC(=O)CCc2ccccc2)CCCNC1=O	–	C57BL/6J mice, spinal cord	oral, 1 mg/kg, two-compartment model	–	apparent total clearance (CL/F)	0.81 ng/(min·ng/g)
